Experimental data of several laboratories.
A part holds a random share of what one study measured.
Sequence of UniProt P50406 (whole entry, looked up): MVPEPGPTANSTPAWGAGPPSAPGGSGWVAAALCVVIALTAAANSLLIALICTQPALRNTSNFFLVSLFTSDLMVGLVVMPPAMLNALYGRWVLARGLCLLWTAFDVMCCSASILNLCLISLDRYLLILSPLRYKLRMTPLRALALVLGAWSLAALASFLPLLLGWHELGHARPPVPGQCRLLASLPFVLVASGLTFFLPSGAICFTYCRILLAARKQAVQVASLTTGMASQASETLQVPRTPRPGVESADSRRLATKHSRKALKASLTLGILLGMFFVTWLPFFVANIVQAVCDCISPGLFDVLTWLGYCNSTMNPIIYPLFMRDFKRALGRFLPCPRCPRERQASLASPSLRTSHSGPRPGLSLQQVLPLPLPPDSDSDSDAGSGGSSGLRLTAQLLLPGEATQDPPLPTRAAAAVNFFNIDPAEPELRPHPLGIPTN

Study 1 — method: protein-binding microarray; form: double-stranded DNA, one strand shown; sample: in vitro; concentration: 2200 nM top; notes: 60-bp whole probe; together with: salmon DNA 0.4 mg/ml; baseline: random background probes; reading: higher = stronger binding; all sequences stand within: GCCTAGCAC … GTCTTGATTCGCTTGACGCTGCTG
Target: Interferon regulatory factor 7, full length, phosphomimetic (IRF7, Homo sapiens, UniProt Q92985, residues 1-503, S471D/S472D/S475D/S476D/S477D/S483D/S484D/S487D)
Target sequence (chain): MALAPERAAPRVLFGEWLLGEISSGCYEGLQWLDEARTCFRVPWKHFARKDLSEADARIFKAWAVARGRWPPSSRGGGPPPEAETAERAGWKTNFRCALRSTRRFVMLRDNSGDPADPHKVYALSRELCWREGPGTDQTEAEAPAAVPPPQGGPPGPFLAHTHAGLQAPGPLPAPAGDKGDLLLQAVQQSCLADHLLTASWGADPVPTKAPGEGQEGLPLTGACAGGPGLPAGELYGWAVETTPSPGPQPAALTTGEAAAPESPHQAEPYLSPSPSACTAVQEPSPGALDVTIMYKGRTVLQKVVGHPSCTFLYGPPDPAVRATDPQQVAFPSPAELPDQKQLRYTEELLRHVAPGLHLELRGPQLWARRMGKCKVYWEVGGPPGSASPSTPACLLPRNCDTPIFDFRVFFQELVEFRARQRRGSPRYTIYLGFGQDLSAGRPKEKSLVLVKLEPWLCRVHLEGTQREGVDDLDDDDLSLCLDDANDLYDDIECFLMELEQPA
`TTAGATATCGGGTATCTATTAGTGCTA` — result for “fitted relative affinity”: 0.355 z-score.
`GACGATAACAGTCTCGAGACGTGCTAG` — result for “fitted relative affinity”: 0.264 z-score.
`AGGTTTCTATATTTGCTTCAGTGCTAG`: “fitted relative affinity” 2.71 z-score.
`TTAGGTACCGACACTGGGTTAGTGCTA`: “fitted relative affinity” -0.296 z-score.
`TTAGGTCGCGGTATCGGTTAGTGCTAG`: “fitted relative affinity” 0.405 z-score.
`TCATCATTTTTTTTCATACTGTGCTAG` — result for “fitted relative affinity”: 1.61 z-score.
Under “fitted relative affinity”, `GAAGGACTGCTTTTCCTGACGTGCTAG` is recorded as 0.458 z-score.
Under “fitted relative affinity”, `TTAGGTATCGGACTCGGTTAGTGCTAG` is recorded as 0.816 z-score.

Study 2 — method: protein-binding microarray; form: hairpin DNA; sample: in vitro; concentration: not given; baseline: not given; reading: higher = stronger binding
Target: Cyclic AMP-responsive element-binding protein 1, full length (CREB1, Homo sapiens, UniProt P16220, residues 1-327)
Sequence of UniProt P16220 (whole entry, looked up): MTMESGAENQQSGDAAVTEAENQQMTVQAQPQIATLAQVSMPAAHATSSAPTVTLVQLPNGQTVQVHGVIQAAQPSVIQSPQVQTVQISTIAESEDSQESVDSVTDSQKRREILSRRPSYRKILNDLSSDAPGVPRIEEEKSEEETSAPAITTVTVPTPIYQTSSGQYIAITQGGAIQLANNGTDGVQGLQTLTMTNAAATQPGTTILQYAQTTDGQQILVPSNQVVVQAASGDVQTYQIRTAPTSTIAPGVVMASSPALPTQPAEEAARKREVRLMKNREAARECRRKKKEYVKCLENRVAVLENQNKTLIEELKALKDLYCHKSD
Notes: whole hairpin DNA, median over replicate spots
For `GAGGCCGTCTGACGTCAGCCTCCTGGCTGACGTCAGACGGCCTCACACTC`, the median fluorescence was 12600 a.u.
`GAGGCCGACGACCGCGTGCCTCCTGGCACGCGGTCGTCGGCCTCACACTC (5mC at 9 13 15 29 31 35)` has a median fluorescence of 2790 a.u.
`GAGGCCGGATGACCGCAGCCTCCTGGCTGCGGTCATCCGGCCTCACACTC (5mC at 14)` has a median fluorescence of 2850 a.u.
The median fluorescence of `GAGGCCGACCGCGTCGTGCCTCCTGGCACGACGCGGTCGGCCTCACACTC (5mC at 9 10 15 29 34)` is reported as 4010 a.u.
`GAGGCCGGATGTCGTCAGCCTCCTGGCTGACGACATCCGGCCTCACACTC` gave a median fluorescence of 4390 a.u.
`GAGGCCCGCTGACGTCAGCCTCCTGGCTGACGTCAGCGGGCCTCACACTC` has a median fluorescence of 14900 a.u.
For `GAGGCCGGATGACGTGAGCCTCCTGGCTCACGTCATCCGGCCTCACACTC`, the median fluorescence was 9670 a.u.
The median fluorescence of `GAGGCCGGATGCGGTCAGCCTCCTGGCTGACCGCATCCGGCCTCACACTC (5mC at 12 32)` is reported as 2700 a.u.

Study 3 — method: RNA Bind-n-Seq; form: RNA; sample: in vitro; concentration: 365 nM; baseline: no-protein control; reading: higher = stronger binding
Target: RNA binding protein fox-1 homolog 2, RRM domain, GST-SBP tag (RBFOX2, Homo sapiens, UniProt O43251-10, residues 100-194)
Notes: natural RNA segment, single round, ends assumed
All sequences stand within: GGGAGUUCUACAGUCCGACGAUC … UGGAAUUCUCGGGUGCCAA
Construct (chain): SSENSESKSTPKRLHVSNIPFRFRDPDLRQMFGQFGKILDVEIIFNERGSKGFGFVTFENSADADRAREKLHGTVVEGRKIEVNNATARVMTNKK
Under “RBNS enrichment (R)”, `GGAACCCAUCAGGUAUGAGUGAGGAGCCGGUAGUGAAUUCAGUAUUGGCCAAGUCCAUGUUGUGUGCUCAGAAGUCUCUUUACCAAAGACCAGGAGCAGGAGCCAAGCAU` is recorded as 0.936.
`GUGACCCCAGCCCAGCCUAGUGUCACUUUAGGCCUGACGUUUGAGCAACCCUCGGCUCUUGCCAAGGCACCACAGAAUGCACUUGCUCAUGCCCUGUGCCUCUUGAGCAG` — result for “RBNS enrichment (R)”: 0.189.
`AACACUGAGACAGGAGUGAGACCAGCUGCGGGUGGGGAGUUUGUGCUCCGCAGGUUACCUCAUGGCAUAUCAAAAAUGGCUUUUUUCUUCACUGCGCUCAAGGAAAAAGU` — result for “RBNS enrichment (R)”: 0.904.
`AAGAUUGUCAGCUUCAGUAUUCAUGUUCCAUCGUGUCAUCUGGGUCUGUUAGUGUAGUGACCCUCAGUGCAGUCUGUCCCAGCGUUUACGUCCUUGCUUCCUCUGAGCAG` — result for “RBNS enrichment (R)”: 0.344.
`UUAUCUGUAAAUUUGCUCAAAUAAUAAGAUAAUGUACAACACUAAUAGCCAGAUAUGAGUUUAAACUUUUUUCAUGCUUGUAUAUUUUAUUUUUAACUAUAUACAAGUAU`: “RBNS enrichment (R)” 1.11.
For `CUUCUCUUUUUCGACAAUGGUAGACAUGAAUGAGAUAUUUAAAGUUCAUUGGAAAUCUUCUUCCCUACAGCAGUAAGCAAAAAUUAGCAAAGAGAUAGUCUAAAUGGCCU`, “RBNS enrichment (R)” read 0.364.
Under “RBNS enrichment (R)”, `ACAGUGAGCUCAGAAAUAAAAACUCCAUUUUGAGACAUUCAGAAUGUCCCAACAUUACGACAACAUUUUUUUUUUUUUUUUCUAAUCCAGUCCAGGUUGGAAAGAAGUCU` is recorded as 0.412.
`GAGAUCCUCCUUCCUCUGCCUCGGGAGGGCUGGGGCUAAAGGCACACAGCACCAAACCCAGCUAAGUACAGCGUCUAAACAUUUCUUAAAGCAUAUGAUAUUGGUUUUAA`: “RBNS enrichment (R)” 0.514.

Other studies, line by line
With `Cc1noc([C@H]2C[C@@H](c3ccc(C(F)(F)F)cc3)CN(C(=O)N3CCS(=O)(=O)C3)C2)n1` the inhibition was 27.7% (5-hydroxytryptamine receptor 6 (HTR6, Homo sapiens, UniProt P50406); ligand displacement; 10 µM).

Excerpt of the above (study 1):
`TCATCATTTTTTTTCATACTGTGCTAG` — result for “fitted relative affinity”: 1.61 z-score.
`GACGATAACAGTCTCGAGACGTGCTAG` — result for “fitted relative affinity”: 0.264 z-score.
